Measurements of several laboratories.
Compare with care: the assays were run in different laboratories. Several values in a cell are separate wells, animals, samples, runs or records.
Cnr2: Cannabinoid receptor 2 (Cnr2, Mus musculus, UniProt P47936)
Sequence of UniProt P47936 (whole entry, looked up): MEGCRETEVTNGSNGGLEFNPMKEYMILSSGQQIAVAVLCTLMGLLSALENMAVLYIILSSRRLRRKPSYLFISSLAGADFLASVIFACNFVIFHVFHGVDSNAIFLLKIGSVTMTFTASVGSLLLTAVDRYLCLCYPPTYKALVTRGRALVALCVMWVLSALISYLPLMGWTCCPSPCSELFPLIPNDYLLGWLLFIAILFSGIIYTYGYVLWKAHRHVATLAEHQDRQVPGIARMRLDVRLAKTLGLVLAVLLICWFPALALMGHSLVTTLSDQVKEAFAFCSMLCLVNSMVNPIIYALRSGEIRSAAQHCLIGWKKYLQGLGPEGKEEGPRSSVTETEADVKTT
EGFR L858R/T790M: Epidermal growth factor receptor (EGFR, Homo sapiens, UniProt P00533, L858R/T790M)
ST6GAL1: Beta-galactoside alpha-2,6-sialyltransferase 1 (ST6GAL1, Homo sapiens, UniProt P15907)
Sequence of UniProt P15907 (whole entry, looked up): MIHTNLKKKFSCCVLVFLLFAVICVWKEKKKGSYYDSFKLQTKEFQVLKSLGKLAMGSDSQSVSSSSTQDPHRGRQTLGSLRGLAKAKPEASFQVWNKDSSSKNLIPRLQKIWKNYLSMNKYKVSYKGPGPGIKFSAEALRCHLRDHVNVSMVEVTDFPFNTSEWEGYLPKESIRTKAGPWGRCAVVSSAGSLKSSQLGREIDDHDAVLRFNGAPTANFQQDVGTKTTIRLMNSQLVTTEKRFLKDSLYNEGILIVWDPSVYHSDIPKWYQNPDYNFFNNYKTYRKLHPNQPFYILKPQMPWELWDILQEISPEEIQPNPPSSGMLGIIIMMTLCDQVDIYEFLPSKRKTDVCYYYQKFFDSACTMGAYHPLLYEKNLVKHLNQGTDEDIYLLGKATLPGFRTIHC
Sequence of UniProt P62593 (whole entry, looked up): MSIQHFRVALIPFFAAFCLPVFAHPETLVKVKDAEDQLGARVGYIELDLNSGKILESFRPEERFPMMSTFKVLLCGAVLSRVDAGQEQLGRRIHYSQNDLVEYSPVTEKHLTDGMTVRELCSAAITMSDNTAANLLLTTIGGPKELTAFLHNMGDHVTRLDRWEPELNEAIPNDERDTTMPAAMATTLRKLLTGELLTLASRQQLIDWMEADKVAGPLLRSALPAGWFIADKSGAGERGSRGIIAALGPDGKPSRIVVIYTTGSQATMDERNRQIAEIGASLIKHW
Sequence of UniProt P21980 (whole entry, looked up): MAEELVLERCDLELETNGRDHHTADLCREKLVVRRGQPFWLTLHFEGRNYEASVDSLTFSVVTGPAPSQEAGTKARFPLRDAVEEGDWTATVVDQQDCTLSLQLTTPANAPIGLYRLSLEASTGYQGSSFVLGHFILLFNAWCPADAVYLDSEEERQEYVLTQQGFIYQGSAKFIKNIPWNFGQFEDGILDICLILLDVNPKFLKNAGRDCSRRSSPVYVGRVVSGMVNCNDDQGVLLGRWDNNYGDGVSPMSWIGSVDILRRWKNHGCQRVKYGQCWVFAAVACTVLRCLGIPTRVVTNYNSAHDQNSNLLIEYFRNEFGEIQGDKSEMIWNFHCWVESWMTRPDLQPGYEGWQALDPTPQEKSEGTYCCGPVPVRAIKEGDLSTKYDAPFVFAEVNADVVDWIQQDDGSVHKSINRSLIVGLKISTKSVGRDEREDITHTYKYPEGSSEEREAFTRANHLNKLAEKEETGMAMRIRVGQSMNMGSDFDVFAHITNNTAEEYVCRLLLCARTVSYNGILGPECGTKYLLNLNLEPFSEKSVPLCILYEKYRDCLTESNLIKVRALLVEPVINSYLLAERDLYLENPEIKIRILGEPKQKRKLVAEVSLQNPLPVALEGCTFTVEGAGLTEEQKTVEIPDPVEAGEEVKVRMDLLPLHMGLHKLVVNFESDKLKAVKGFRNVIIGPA
Sequence of UniProt Q14432 (whole entry, looked up): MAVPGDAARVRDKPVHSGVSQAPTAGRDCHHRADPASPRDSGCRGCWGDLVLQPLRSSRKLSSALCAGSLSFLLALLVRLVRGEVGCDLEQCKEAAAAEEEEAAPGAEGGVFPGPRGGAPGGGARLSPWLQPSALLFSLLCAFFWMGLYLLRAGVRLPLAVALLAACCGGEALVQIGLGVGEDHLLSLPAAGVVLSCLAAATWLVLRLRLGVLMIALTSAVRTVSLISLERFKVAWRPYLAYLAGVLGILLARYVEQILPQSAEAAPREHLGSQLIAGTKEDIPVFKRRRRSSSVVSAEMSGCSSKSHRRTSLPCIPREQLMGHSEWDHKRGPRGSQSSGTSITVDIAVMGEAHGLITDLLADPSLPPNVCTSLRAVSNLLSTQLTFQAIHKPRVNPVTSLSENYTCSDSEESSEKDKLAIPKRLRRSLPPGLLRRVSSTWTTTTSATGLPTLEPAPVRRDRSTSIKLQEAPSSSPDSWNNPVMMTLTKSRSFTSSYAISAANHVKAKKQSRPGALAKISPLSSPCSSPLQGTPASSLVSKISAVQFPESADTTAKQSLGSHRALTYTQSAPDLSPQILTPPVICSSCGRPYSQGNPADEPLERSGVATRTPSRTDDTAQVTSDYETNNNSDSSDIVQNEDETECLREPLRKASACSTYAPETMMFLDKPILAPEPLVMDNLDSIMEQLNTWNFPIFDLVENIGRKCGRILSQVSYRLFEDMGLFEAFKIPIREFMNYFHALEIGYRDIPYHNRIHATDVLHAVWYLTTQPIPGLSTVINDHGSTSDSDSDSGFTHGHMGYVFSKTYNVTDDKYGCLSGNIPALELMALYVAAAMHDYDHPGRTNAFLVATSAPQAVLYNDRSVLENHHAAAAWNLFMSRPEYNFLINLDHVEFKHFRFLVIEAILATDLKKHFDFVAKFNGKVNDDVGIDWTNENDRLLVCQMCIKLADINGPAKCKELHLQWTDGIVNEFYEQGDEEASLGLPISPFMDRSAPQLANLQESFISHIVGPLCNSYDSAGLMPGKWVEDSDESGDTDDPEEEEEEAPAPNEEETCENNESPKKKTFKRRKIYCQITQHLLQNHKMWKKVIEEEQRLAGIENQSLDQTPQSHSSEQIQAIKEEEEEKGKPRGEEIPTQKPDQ
Sequence of UniProt O60930 (whole entry, looked up): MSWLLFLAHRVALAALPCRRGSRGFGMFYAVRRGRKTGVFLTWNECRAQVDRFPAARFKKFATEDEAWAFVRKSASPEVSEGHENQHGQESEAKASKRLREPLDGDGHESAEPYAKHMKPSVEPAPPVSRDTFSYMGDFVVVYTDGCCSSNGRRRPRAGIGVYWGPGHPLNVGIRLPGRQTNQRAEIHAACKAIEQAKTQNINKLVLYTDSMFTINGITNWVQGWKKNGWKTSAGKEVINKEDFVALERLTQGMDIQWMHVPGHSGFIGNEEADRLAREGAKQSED
Sequence of UniProt Q9Y233 (whole entry, looked up): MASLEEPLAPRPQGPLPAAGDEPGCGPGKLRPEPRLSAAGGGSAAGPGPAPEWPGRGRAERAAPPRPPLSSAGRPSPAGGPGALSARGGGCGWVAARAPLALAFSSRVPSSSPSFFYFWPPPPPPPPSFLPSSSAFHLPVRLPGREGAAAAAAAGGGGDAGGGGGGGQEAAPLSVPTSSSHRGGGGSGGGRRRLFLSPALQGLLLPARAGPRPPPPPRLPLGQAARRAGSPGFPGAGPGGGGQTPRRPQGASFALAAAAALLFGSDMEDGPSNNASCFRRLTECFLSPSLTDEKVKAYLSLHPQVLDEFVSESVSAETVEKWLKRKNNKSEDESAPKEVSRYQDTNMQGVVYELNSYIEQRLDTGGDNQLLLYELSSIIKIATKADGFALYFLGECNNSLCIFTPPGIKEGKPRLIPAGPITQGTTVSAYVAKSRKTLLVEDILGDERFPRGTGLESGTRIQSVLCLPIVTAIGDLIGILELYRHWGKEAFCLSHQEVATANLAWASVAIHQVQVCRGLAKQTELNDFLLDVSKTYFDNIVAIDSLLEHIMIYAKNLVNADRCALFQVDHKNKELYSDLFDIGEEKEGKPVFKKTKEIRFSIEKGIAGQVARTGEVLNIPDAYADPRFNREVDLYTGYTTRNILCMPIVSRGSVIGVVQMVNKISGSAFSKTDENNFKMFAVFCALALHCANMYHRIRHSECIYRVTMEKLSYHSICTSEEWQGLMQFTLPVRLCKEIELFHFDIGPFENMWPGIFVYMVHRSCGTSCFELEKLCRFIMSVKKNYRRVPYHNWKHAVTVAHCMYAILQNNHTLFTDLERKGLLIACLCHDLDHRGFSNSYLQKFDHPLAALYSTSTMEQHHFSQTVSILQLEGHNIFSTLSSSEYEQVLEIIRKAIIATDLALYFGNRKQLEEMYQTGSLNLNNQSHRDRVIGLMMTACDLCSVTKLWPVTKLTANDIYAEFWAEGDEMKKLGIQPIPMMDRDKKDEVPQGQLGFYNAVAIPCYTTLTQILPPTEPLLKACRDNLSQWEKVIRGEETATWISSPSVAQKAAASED
Sequence of UniProt Q9HC52 (whole entry, looked up): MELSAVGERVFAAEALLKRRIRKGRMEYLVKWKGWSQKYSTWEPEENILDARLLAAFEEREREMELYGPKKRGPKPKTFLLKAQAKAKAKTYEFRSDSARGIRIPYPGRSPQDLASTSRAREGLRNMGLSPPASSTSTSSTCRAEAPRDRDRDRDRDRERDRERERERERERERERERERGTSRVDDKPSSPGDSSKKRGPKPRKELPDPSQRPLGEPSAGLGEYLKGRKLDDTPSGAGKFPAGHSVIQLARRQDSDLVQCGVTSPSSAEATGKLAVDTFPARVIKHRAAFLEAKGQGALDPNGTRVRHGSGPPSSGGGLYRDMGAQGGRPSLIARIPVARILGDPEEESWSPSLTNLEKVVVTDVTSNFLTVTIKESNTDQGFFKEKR
Sequence of UniProt P30405 (whole entry, looked up): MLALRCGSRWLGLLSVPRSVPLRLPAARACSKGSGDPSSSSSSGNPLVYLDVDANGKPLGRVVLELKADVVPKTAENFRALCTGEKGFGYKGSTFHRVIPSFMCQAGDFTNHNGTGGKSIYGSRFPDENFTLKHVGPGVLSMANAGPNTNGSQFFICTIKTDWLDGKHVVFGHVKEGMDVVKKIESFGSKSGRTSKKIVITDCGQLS

`C[C@H](NC(=O)[C@H](Cc1ccccc1)NC(=O)c1ccc(Br)cc1)C(=O)N[C@H](C(=O)N[C@@H](CCCC[N+](C)(C)C)C(=O)N[C@@H](CO)C(N)=O)C1CCCC1` has a selectivity ratio of 30 fold (Chromobox protein homolog 8 (Homo sapiens, UniProt Q9HC52); competitive fluorescence polarization; baseline: Cbx7 over Chromobox protein homolog 8).
`COC(=O)C=CCCC(NC(=O)c1ccncc1C(=O)O)C(=O)NC(C(=O)N1CC(=O)CC1C(=O)NC(C(=O)NC(C(N)=O)C1CCCCC1)C1CCCCC1)C(C)(C)C` (stereo not shown) has a selectivity ratio of 19 (Protein-glutamine gamma-glutamyltransferase (TGM2, Homo sapiens, UniProt P21980); transamidation activity; baseline: TG2 over FXIII-A2).
The selectivity ratio of `Cc1cc2c(cc1Cl)Cc1c(C(=O)NC3C4(C)CCC(C4)C3(C)C)nn(-c3ccc(Cl)cc3Cl)c1-2` (stereo not shown) is reported as 196 (Cnr2; radioligand displacement; mouse brain and spleen homogenates; together with: [3H]CP-55,940; baseline: Ki CB1 over Ki CB2).
`C=C(C)C1CCc2c(c(C)cc(O)c(=O)c2O)C1` (stereo not shown) has a selectivity ratio of 6 fold (Ribonuclease H1 (Homo sapiens, UniProt O60930); baseline: HIV-1 RNase H over Ribonuclease H1).
For `CCCCCCCCCCOc1c(O)cc(C(=O)OC2Cc3c(O)cc(O)cc3OC2c2cc(O)c(O)c(O)c2)cc1O` (stereo not shown), the selectivity ratio was 1.62 (EGFR L858R/T790M; kinase activity; baseline: EGFR T790M/L858R over wild-type EGFR).
The selectivity ratio of `COCCCN1CCc2c(Cc3ccc(Cl)cc3)[nH]c3c(OC(F)F)ccc(c23)C1=O` is reported as over 1200 (cGMP-inhibited 3',5'-cyclic phosphodiesterase 3A (PDE3A, Homo sapiens, UniProt Q14432); enzyme activity; baseline: IC50 PDE5A1 over PDE3A).
With `CCc1c(Cl)cccc1N1CCN(C[C@@H](F)CCNC(=O)c2cc3ccccc3[nH]2)CC1` the selectivity ratio was > 1000 fold and 1060 fold (dopamine D3 and D2 receptors; binding; baseline: Ki D2 over Ki D3).
`CC(=O)O[C@H]1OC[C@@H]2C=C([C@@]3(C)CCCC(C)(C)C3)CC[C@H]12` gave a selectivity ratio of about 18 fold (Peptidyl-prolyl cis-trans isomerase F, mitochondrial (PPIF, Homo sapiens, UniProt P30405); PPIase enzyme activity, inhibitor; baseline: PPIF over cyclophilin A).
The selectivity ratio of `Cc1cc2c(cc1Cl)Cc1c(C(=O)NN3CCCCC3)nn(-c3ccc(Cl)cc3Cl)c1-2` is reported as 14 (Cnr2; radioligand displacement; mouse brain and spleen homogenates; together with: [3H]CP-55,940; baseline: Ki CB1 over Ki CB2).
`CCC1(CC)C(=O)N(c2cccc(CN3CCc4cc5c(cc4C3)OCO5)c2)C1=O` gave a selectivity ratio of 4 (Dipeptidyl peptidase 8 (Homo sapiens, UniProt Q6V1X1); baseline: Ki DPP9 over Ki target).
For `Nc1nc(Cl)nc2c1ncn2Cc1cc(OCC(F)F)cc(OC(F)F)c1`, the selectivity ratio was 111 fold (cAMP and cAMP-inhibited cGMP 3',5'-cyclic phosphodiesterase 10A, catalytic domain (PDE10A, Homo sapiens, UniProt Q9Y233); enzyme activity, inhibitor; baseline: PDE10A over PDE8A1).
`Cc1cc(S(=O)(=O)Nc2ncccn2)c(F)cc1N(C)C1CCN([C@H](C)c2ccccc2)CC1` has a selectivity ratio of over 100 fold (Sodium channel protein type 8 subunit alpha (SCN8A, Homo sapiens, UniProt Q9UQD0); ion current, inhibitor, automated patch clamp; baseline: other NaV subtypes over NaV1.6).
For `C[C@H](CCC(=O)N[C@H](CC(c1c[nH]c2ccccc12)c1c[nH]c2ccccc12)C(=O)O)[C@H]1CC[C@H]2[C@@H]3CC[C@@H]4C[C@H](O)CC[C@]4(C)[C@H]3CC[C@]12C`, the selectivity ratio was over 44 (ST6GAL1; baseline: ST3GAL1 IC50 over ST6GAL1 IC50).
For `CCCCCCCCCCCCCCOc1c(O)cc(C(=O)O[C@@H]2Cc3c(O)cc(O)cc3O[C@@H]2c2cc(O)c(O)c(O)c2)cc1O`, the selectivity ratio was 1.49 (EGFR L858R/T790M; kinase activity; baseline: EGFR T790M/L858R over wild-type EGFR).
`C[C@H](CCC(=O)N[C@H](CC(c1c[nH]c2ccc(N=[N+]=[N-])cc12)c1c[nH]c2ccc(N=[N+]=[N-])cc12)C(=O)O)[C@H]1CC[C@H]2[C@@H]3CC[C@@H]4C[C@H](O)CC[C@]4(C)[C@H]3CC[C@]12C` (stereo partly shown) gave a selectivity ratio of over 153 (ST6GAL1; baseline: ST3GAL1 IC50 over ST6GAL1 IC50).
For `O=C(Oc1nsnc1N1CCOCC1)c1ccccc1`, the selectivity ratio was about 3 fold (Beta-lactamase TEM (bla, Escherichia coli, UniProt P62593); enzyme activity, colorimetric nitrocefin; baseline: IgA1 protease over bla).

Excerpt of the above:
For `CCCCCCCCCCCCCCOc1c(O)cc(C(=O)O[C@@H]2Cc3c(O)cc(O)cc3O[C@@H]2c2cc(O)c(O)c(O)c2)cc1O`, the selectivity ratio was 1.49 (EGFR L858R/T790M; kinase activity; baseline: EGFR T790M/L858R over wild-type EGFR).
`C[C@H](CCC(=O)N[C@H](CC(c1c[nH]c2ccc(N=[N+]=[N-])cc12)c1c[nH]c2ccc(N=[N+]=[N-])cc12)C(=O)O)[C@H]1CC[C@H]2[C@@H]3CC[C@@H]4C[C@H](O)CC[C@]4(C)[C@H]3CC[C@]12C` (stereo partly shown) gave a selectivity ratio of over 153 (ST6GAL1; baseline: ST3GAL1 IC50 over ST6GAL1 IC50).
